Measurements pooled from the literature.
Compare with care: the assays were run in different laboratories.
Cell line: NCI-H460

| Structure (SMILES) | observed | action | technique | time | notes | IC50 [nM] |
| --- | --- | --- | --- | --- | --- | --- |
| CCCCCCCCCCCCCCCCCC(=O)[O][Pt-2]1([OH])([Cl])([NH+]=C(CC)N(C)CCNc2c3ccccc3[nH+]c3ccccc23)[NH]CCC[NH]1.O=[N+]([O-])O.O=[N+]([O-])O | cell growth or viability | – | MTS | 72 h | – | 35.6 |
| CCOc1cncc(-c2ccc(NC(=O)C3(c4ccnc(NS(=O)(=O)C5CC5)n4)CCOCC3)nc2)n1 | cell growth or viability | – | ATP luminescence | 72 h | – | 1460 |
| Cc1ccc2c(c1C#Cc1ccc(O)cc1)C(c1ccc(O)cc1)(c1ccc(O)cc1)c1cc(O)ccc1-2 | cell growth or viability | – | MTT | 48 h | – | 10600 |
| CC(C)c1ccc(N(C)c2ccc3c(c2)OCC[C@H]3CNc2cnccc2C(=O)O)cc1 | cell growth or viability | – | ATP luminescence | 7 days | – | 11.6 |
| COC(OC)c1ccc(-c2ccc(O)cc2)c(C(=C2C=CC(=O)C=C2)c2ccc(O)cc2)c1C#Cc1ccc(O)cc1 | cell growth or viability | – | MTT | 48 h | – | > 50000 |
| COc1cc(S(=O)(=O)Oc2ccc3[nH]c(C)cc3c2)cc(OC)c1OC | cell growth or viability | – | – | 72 h | – | 7.96 |
| CCC(=[N][Pt-2]1([Cl])[NH2+]CCC[NH2+]1)N(C)CCNc1c2ccccc2nc2ccccc12.O=[N+]([O-])O.O=[N+]([O-])O | cell growth or viability | – | MTS | 72 h | – | 2.16 |
| CC(=O)OC[C@H]1O[C@@H](Oc2ccc(C#[C][Pt+])cc2)[C@H](OC(C)=O)[C@@H](OC(C)=O)[C@@H]1OC(C)=O.O=S(=O)([O-])C(F)(F)F.c1ccc(-c2cccc(-c3ccccn3)n2)nc1 | cell growth or viability | – | – | 48 h | – | 97400 |
| CCC(=[NH+][Pt-2]1([Cl])([O]C(C)=O)([O]C(C)=O)[NH]CCC[NH]1)N(C)CCNc1c2ccccc2[nH+]c2ccccc12.O=[N+]([O-])O.O=[N+]([O-])O | cell growth or viability | – | MTS | 72 h | – | 11.1 |
| Cn1ncc(-c2ccc3c(=O)[nH]nc(CN)c3c2)c1-c1c(F)c(Cl)cc(OC2CC2)c1C#N | cell viability | inhibitor | CellTiter-Glo | 120 h | baseline-subtracted | 1310 |
| O=Cc1ccc2c(c1C#Cc1ccc(O)cc1)C(c1ccc(O)cc1)(c1ccc(O)cc1)c1cc(O)ccc1-2 | cell growth or viability | – | MTT | 48 h | – | > 50000 |
| Cc1ccc([N+](=O)[O-])cc1S(=O)(=O)N(C)/N=C/c1cnc2ccc(Br)cn12 | cell growth or viability | – | – | – | – | 10 |

A few entries again:
| Structure (SMILES) | observed | action | technique | time | notes | IC50 [nM] |
| --- | --- | --- | --- | --- | --- | --- |
| CCCCCCCCCCCCCCCCCC(=O)[O][Pt-2]1([OH])([Cl])([NH+]=C(CC)N(C)CCNc2c3ccccc3[nH+]c3ccccc23)[NH]CCC[NH]1.O=[N+]([O-])O.O=[N+]([O-])O | cell growth or viability | – | MTS | 72 h | – | 35.6 |
